Published values pooled from the literature.
Numbered parts are unrelated; each lists some results of a single study.
Sequence of UniProt Q86UE8 (whole entry, looked up): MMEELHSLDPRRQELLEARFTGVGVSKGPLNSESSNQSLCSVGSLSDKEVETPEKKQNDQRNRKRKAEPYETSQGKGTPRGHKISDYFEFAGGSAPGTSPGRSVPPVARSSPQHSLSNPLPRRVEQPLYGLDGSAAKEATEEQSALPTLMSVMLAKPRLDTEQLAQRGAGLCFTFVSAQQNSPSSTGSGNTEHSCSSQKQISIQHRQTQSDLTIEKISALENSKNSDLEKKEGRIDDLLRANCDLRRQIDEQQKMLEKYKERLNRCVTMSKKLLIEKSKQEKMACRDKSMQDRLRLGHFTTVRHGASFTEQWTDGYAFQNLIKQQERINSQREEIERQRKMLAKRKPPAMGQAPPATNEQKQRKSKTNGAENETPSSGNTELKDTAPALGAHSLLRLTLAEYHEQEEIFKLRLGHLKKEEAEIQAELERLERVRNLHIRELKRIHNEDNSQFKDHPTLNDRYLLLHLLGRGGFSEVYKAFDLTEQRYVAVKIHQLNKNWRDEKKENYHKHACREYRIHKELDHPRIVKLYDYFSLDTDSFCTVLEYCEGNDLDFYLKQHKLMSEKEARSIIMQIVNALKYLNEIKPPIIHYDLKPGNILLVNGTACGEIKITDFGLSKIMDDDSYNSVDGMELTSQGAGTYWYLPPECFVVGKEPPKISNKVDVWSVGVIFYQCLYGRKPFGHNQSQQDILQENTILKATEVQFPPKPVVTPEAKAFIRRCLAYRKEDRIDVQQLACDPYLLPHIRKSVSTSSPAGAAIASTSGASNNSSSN
Sequence of UniProt Q16566 (whole entry, looked up): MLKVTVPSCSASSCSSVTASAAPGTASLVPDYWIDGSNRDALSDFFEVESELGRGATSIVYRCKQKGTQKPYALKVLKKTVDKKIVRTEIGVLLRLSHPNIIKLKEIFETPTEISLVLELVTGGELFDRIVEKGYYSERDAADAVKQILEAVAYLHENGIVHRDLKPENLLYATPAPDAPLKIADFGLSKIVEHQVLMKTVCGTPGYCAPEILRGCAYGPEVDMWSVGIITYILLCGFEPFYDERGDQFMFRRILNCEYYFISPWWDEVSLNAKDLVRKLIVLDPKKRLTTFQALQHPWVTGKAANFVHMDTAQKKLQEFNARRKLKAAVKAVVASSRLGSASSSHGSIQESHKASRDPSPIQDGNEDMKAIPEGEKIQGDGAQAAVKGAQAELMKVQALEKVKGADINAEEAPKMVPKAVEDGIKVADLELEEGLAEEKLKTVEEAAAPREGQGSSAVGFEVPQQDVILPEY
Sequence of UniProt P49761 (whole entry, looked up): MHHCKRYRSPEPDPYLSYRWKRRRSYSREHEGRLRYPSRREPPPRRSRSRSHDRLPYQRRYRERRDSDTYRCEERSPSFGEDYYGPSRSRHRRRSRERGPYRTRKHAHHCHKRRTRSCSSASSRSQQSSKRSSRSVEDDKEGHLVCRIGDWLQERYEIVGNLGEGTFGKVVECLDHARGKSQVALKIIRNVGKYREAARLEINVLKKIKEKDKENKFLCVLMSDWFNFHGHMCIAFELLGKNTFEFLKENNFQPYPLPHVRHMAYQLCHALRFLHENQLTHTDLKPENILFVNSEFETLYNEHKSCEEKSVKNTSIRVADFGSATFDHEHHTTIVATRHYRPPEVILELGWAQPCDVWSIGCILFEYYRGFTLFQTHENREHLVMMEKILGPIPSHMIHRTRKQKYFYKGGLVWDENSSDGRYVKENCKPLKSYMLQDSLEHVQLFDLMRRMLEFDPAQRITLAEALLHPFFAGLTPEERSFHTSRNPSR
Sequence of UniProt Q8N4C8 (whole entry, looked up): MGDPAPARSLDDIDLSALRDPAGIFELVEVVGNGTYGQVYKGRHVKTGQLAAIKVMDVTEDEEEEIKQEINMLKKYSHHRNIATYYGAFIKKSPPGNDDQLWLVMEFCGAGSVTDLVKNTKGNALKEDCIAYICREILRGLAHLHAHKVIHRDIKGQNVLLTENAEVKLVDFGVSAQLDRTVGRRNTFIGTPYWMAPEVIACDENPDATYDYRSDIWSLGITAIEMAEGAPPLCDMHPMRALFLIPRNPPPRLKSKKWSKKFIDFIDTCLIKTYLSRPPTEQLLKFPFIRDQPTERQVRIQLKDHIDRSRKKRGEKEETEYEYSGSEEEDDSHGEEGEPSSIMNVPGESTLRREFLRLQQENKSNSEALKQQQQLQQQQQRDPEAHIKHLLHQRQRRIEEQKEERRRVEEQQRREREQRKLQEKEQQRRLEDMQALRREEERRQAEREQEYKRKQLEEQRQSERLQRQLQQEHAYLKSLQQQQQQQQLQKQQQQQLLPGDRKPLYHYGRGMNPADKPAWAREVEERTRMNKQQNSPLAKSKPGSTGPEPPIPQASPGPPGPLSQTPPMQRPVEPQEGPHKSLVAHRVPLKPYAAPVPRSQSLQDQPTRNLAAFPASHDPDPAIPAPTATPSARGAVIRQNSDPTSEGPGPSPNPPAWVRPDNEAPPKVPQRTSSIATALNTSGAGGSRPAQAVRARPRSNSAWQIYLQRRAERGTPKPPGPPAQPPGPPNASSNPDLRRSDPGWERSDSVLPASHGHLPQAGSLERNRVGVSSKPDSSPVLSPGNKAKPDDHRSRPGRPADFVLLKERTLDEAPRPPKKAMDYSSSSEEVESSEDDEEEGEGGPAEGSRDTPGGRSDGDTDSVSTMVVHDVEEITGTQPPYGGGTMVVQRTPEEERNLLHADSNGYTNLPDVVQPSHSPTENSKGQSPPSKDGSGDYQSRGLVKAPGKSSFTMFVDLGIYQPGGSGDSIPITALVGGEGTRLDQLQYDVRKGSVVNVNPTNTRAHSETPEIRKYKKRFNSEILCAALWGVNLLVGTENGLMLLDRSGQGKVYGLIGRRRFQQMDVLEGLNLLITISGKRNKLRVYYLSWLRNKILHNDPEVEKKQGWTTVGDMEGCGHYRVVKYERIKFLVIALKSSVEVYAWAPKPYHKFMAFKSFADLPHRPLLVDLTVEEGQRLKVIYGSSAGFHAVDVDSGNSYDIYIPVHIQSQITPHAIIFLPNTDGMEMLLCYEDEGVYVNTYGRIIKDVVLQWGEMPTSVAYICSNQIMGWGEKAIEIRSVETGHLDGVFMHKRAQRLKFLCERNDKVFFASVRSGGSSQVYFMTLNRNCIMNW
Sequence of UniProt P31751 (whole entry, looked up): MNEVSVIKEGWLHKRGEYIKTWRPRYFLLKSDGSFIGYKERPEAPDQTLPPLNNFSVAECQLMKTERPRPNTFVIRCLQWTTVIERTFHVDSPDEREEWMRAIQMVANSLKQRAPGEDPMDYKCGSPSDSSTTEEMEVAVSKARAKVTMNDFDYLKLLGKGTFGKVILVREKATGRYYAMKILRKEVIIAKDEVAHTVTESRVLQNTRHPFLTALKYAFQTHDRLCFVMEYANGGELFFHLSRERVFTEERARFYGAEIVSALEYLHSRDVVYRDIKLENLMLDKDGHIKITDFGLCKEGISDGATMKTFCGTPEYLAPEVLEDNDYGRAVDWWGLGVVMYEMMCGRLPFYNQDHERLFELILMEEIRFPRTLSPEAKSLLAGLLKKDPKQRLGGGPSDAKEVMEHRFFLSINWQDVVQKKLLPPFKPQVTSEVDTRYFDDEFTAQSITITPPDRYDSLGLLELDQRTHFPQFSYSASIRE
Sequence of UniProt Q9H4B4 (whole entry, looked up): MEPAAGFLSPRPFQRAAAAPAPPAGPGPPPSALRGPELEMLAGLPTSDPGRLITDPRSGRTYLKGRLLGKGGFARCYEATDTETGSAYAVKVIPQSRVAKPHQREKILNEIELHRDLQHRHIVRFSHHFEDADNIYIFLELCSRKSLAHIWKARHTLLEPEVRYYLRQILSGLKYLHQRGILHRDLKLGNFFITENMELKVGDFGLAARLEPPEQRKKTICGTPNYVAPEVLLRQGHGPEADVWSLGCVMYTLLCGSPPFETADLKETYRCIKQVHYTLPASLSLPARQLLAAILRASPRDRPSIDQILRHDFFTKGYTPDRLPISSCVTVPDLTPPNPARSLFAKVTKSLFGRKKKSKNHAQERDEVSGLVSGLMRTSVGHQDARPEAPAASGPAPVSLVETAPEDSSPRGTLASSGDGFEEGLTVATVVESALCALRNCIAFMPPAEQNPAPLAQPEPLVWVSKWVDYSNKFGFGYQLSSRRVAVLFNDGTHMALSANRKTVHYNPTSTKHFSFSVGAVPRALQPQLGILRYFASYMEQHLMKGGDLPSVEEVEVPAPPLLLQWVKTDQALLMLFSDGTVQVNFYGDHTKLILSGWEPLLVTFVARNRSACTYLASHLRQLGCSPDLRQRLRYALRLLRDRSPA
Sequence of UniProt P42681 (whole entry, looked up): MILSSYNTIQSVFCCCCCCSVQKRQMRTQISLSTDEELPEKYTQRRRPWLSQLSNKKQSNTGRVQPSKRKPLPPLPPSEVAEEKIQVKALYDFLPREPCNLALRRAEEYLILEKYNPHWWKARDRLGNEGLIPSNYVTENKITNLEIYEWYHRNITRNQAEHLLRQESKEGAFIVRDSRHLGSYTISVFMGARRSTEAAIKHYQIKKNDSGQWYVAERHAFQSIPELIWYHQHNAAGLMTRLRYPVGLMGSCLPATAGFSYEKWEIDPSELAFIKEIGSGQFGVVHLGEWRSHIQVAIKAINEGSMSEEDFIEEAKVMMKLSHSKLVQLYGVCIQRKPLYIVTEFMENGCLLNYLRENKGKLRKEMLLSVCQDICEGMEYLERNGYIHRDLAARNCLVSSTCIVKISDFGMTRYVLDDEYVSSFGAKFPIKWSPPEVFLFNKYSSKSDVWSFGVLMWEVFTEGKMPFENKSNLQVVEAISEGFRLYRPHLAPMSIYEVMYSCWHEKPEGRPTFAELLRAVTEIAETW

Series 1 — SMILES: N#Cc1c(NC(=O)c2cccc3ccccc23)sc2c1CCCC2; effect on: enzyme activity; action: inhibitor; tested at: 0.5 µM; reference: control
For Tyrosine-protein kinase TXK (TXK, Homo sapiens, UniProt P42681): remaining activity read 97%.
For Serine/threonine-protein kinase tousled-like 2 (TLK2, Homo sapiens, UniProt Q86UE8): remaining activity read 98.9%.
It gave 95.2% for remaining activity (Misshapen-like kinase 1 (MINK1, Homo sapiens, UniProt Q8N4C8)).
For Dual specificity protein kinase CLK4 (CLK4, Homo sapiens, UniProt Q9HAZ1): remaining activity read 92%.
Calcium/calmodulin-dependent protein kinase type 1B (PNCK, Homo sapiens, UniProt Q6P2M8) — remaining activity: 104%.
It gave 108% for remaining activity (Calcium/calmodulin-dependent protein kinase type IV (CAMK4, Homo sapiens, UniProt Q16566)).
For Rho-associated protein kinase 1 (ROCK1, Homo sapiens, UniProt Q13464): remaining activity read 96.3%.
Dual specificity mitogen-activated protein kinase kinase 1 (MAP2K1, Homo sapiens, UniProt Q02750) — remaining activity: 98.4%.
The remaining activity was 105% (RAC-beta serine/threonine-protein kinase (AKT2, Homo sapiens, UniProt P31751)).
The remaining activity was 99.6% (Serine/threonine-protein kinase PLK3 (PLK3, Homo sapiens, UniProt Q9H4B4)).
Mitogen-activated protein kinase 11 (MAPK11, Homo sapiens, UniProt Q15759) — remaining activity: 104%.
It gave 99.3% for remaining activity (Dual specificity protein kinase CLK3 (CLK3, Homo sapiens, UniProt P49761)).

Series 2 — cell line: sample D normal colon organoid; method: CellTiter-Glo; tested at: 0.1 µM; notes: mean of replicates; reference: DMSO
With Cc1nc(Cc2cccc(C(F)(F)F)c2)sc1-c1ccc(C(N)=O)nc1 the viability was 127%.
With Nc1cnc(N2CCc3cc(S(=O)(=O)Nc4c(F)cc(Cl)cc4F)cc(N4CCCC4=O)c32)nc1 the viability was 151%.
CNCc1ccccc1-c1csc([C@H](C)Nc2nc(C)nc3cc(OC)c(OC)cc23)c1 has a viability of 108%.
For C[C@@H]1CN(c2cc(-c3n[nH]c4ccc(OC5(C)CC5)cc34)ncn2)C[C@H](C)O1, the viability was 97.8%.
O=C(Nc1ccc(-n2nc(-c3cccnc3)cc2C(F)(F)F)cn1)c1ccc(-c2ccccc2)c(F)c1 has a viability of 108%.
For CS(=O)(=O)NCC[C@H](NC(=O)c1cncc2c1cnn2-c1ccc(F)cc1)c1ccnc(S(C)(=O)=O)c1, the viability was 102%.
With Cc1c(NC(=O)c2cc(C(N)=O)nc3cc(F)ccc23)c(C(F)(F)F)nn1Cc1ccc(C(C)(C)C)cc1 the viability was 84.5%.
With Cc1cc(C)c(-n2ccn3nc(-c4cccnc4)cc23)cc1NC(=O)c1cc(C#N)cc(S(F)(F)(F)(F)F)c1 the viability was 92.5%.
The viability of CCCOc1ccc([C@H]2[C@H](C(=O)O)[C@@H](c3ccc4c(c3)OCO4)CN2CC(=O)Nc2c(CC)cccc2CC)cc1 is reported as 124%.
Cc1c[nH]c2nccc(Oc3c(F)cc(Nc4cc(Cl)nc(N)n4)cc3F)c12 has a viability of 120%.

Series 3 — target: Sox-I, HMG box (Salpingoeca helianthica); method: Spec-seq; form: double-stranded DNA, one strand shown; sample: in vitro; tested at: not given; notes: whole probe, mean of replicates; reference: not given; reading: lower = stronger binding; shared flanks, not repeated: GAGTCGTCTCGTCAGCAC … CCGTAGAGCACTCAGGTC
Target sequence (chain): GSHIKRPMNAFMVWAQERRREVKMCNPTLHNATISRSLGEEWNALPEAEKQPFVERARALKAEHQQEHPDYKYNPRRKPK
`CATCAGT` — result for “relative binding energy”: 0.667 ln ratio.
`CATTGTA` — result for “relative binding energy”: -1.98 ln ratio.
`TGATGTT` — result for “relative binding energy”: -0.137 ln ratio.
For `CGAGGTT`, “relative binding energy” read 1.07 ln ratio.
`AGGTGTT` — result for “relative binding energy”: 0.283 ln ratio.
`CATCTGA` — result for “relative binding energy”: 0.852 ln ratio.
`TGGAGTT`: “relative binding energy” 0.653 ln ratio.
`GCTCGTT`: “relative binding energy” 0.659 ln ratio.

Series 4 — method: RNA Bind-n-Seq; form: RNA; sample: in vitro; tested at: 20 nM; notes: 6-mer, flanks averaged, single round; added: 150 mM LiCl; reference: input library; reading: higher = stronger binding
Target: TAR DNA-binding protein 43, full length, His tag (TARDBP, Homo sapiens, UniProt Q13148, residues 1-414)
Under “6-mer enrichment (R)”, `AGUGAC` is recorded as 0.909.
Under “6-mer enrichment (R)”, `CAUCCA` is recorded as 0.856.
`GGCAAU`: “6-mer enrichment (R)” 0.929.
`GUAGCA` — result for “6-mer enrichment (R)”: 0.963.
Under “6-mer enrichment (R)”, `CCUAGA` is recorded as 0.839.
`GAUGGU` — result for “6-mer enrichment (R)”: 1.11.
`UAACUU` — result for “6-mer enrichment (R)”: 0.912.
`ACAACC` — result for “6-mer enrichment (R)”: 0.838.

For quick reference, copied from above (series 1):
For Tyrosine-protein kinase TXK (TXK, Homo sapiens, UniProt P42681): remaining activity read 97%.
It gave 95.2% for remaining activity (Misshapen-like kinase 1 (MINK1, Homo sapiens, UniProt Q8N4C8)).
The remaining activity was 105% (RAC-beta serine/threonine-protein kinase (AKT2, Homo sapiens, UniProt P31751)).
For Dual specificity protein kinase CLK4 (CLK4, Homo sapiens, UniProt Q9HAZ1): remaining activity read 92%.
